# Published values pooled from the literature.
# Each line is one published result; not all experiments were run side by side. “And” joins repeats or separate records; there may be more than shown. ± gives the spread as reported.
Structure (SMILES),tested on,test,setting,scale,measurement,value
Cn1ncc2cc(-c3cncc(Cl)c3N3CCC4(CCNC4=O)CC3)ccc21,LS174T,"gene expression, microarray, measured: GZMB mRNA","concentration not given, 24 h",reference: untreated cells,log2 fold change,-2.49
CC(=O)OC[C@H]1O[C@@H](n2cc(CSc3nc4ccccc4n3Cc3cn([C@@H]4O[C@H](COC(C)=O)[C@@H](OC(C)=O)C(OC(C)=O)[C@H]4OC(C)=O)nn3)nn2)[C@H](OC(C)=O)C(OC(C)=O)[C@@H]1OC(C)=O (stereo in doubt),Caco-2,MTT,31.3 ppm,,cytotoxicity,83.2%
C=C1CC2(C(=O)OC)C=C(C(=O)OC(C)(C)C)C(=O)C1C2 (centres unmarked),AP-1 reporter HEK293,"AP-1 reporter gene, luciferase reporter","1 µM, 6 h, with: PMA 6 ng/mL",higher = more transcription,luminescence,9190 a.u.
CCN(C(=O)c1cc(F)ccc1Oc1nncnc1N1CCC2(C1)CN([C@H](CCCN(C)CCOC)C(C)C)C2)C(C)C,A-375,cell growth or viability,7 days,,GI50,> 10 µM
CCN(CC)CC(=O)Nc1cccc(-n2cc(-c3ccc4ccc(-c5cn(-c6cccc(NC(=O)CN(CC)CC)c6)nn5)cc4c3)nn2)c1,RCC4,"PCR angiogenesis array, measured: PF4","5 x IC50, 2 h, normoxia",reference: untreated,fold regulation,1.17
COC(=O)c1cc(NC2=NC(=O)C(=Cc3ccc(N(C)C)cc3)S2)ccc1OC(C)=O,MCF7,"GC-MS, measured: L-Glutamic acid",1 µM,reference: DMSO,metabolite level,-1.48 fold change
O=C(Nc1nnc2c1c(-c1ccc(Cl)cc1)nc1sc(=Cc3ccco3)c(=O)n12)c1ccccc1 (mixture of isomers),NCI-H322M,SRB,"10 µM, NCI60 single-dose screen",reference: untreated,cell growth,40%
COCCCCCNc1nc(NCCCCCCN(C)C)c2cc(NC(=O)/C=C/CN(C)C)ccc2n1,MCF7,CellTiter-Glo,"1.562 µM, 24 h, unit not given",reference: DMSO-treated cells,viability,1.05 and 1.11 and 1.03
CC(C)c1ccc(N(C)c2ccc3c(c2)OCC[C@H]3CNc2cnccc2C(=O)O)cc1,ASPC1,"cell growth or viability, ATP luminescence",7 days,,IC50,0.0668 µM
COc1ccc(NC(=O)c2ccc3[nH]c(-c4ccc(N(C)C)cc4)nc3c2)cn1,HCT116,IncuCyte,"concentration not given, 22 h",,dead cell to confluence ratio,115 and 229 and 447
COC1=C2CC(C)CC(OC)C(O)C(C)C=C(C)C(OC(N)=O)C(OC)C=CC=C(C)C(=O)NC(=CC1=O)C2=O (centres unmarked),Rh30,"ChIP-seq, measured: H3K36me3 peak","concentration not given, FLOT1 intron chr6:30688200-30712199",reference: untreated control,log fold change,-0.505
CC(C)(C)c1cc(-c2ccc3cccnc3n2)nc(-c2ccc3cccnc3n2)c1.COc1ccncc1.[Cl-].[Cl-].[Ru+2].c1ccc2cc3nc4c5cccnc5c5ncccc5c4nc3cc2c1,A-375,"cytotoxicity, resazurin",dark,,EC50,64.6 µM
Fc1cncc(-c2ccc3[nH]c4ncnc(N[C@H]5CC[C@H](N6CCOCC6)CC5)c4c3c2)c1,OCI-Ly3,immunoblot,"10 µM, 24 h",,IRAK4 phosphorylation,inhibited
O=C1CC[C@H](N2Cc3cc(-c4ccn5ncc(Cl)c5n4)ccc3C2=O)C(=O)N1,MOLM-13,"mRNA level, RNA-seq, measured: PHGDH","200 nM, 24 h",reference: DMSO,log2 fold change,-4.53
Cc1ccncc1.[Cl-].[Cl-].[Ru+2].c1cc(-c2ccc3cccnc3n2)nc(-c2ccc3cccnc3n2)c1.c1ccc2cc3nc4c5cccnc5c5ncccc5c4nc3cc2c1,A-375,resazurin,"with: light 633 nm, 100 J/cm2",reference: dark EC50 over light EC50,phototoxicity index,31
Cc1cc(Cl)cc(-c2ccnc3cc(CN4C(=O)C5C(C4=O)C5(C)C)sc23)c1C[C@@H]1CNCCO1 (some centres unmarked),CHP-212 parental (wild-type USP7),annexin V-PI flow cytometry,"0.1 µM, 48 h",,early apoptotic cells (annexin V+/PI-),7.44% and 6.25% and 9.14%
Cc1cc(C)nc(SCC(=O)Nc2ncc(Cc3cccc(OCc4cn(-c5ccc(Cl)cc5)nn4)c3)s2)n1,PC-3M-luc,"colony formation, colony forming",10 µM,,inhibition,29.8 ± 6.3%
C[n+]1cccc2cc(/C=N/NC(=O)N/N=C/c3ccc4c(ccc[n+]4C)c3)ccc21,hp2 hairpin duplex DNA,FRET melting,"1 µM, with: ds26 10 µM",,ΔTm,0.6 ± 0.3 °C
CN(C)c1ccc(-n2cc(COC(=O)[C@]3(C)C=C(C(=O)OC(C)(C)C)C(=O)CC3)nn2)cc1,AP-1 reporter HEK293,"AP-1 reporter gene, luciferase reporter","10 µM, 6 h, with: PMA 6 ng/mL",reference: PMA alone,luminescence relative to PMA,0.103
CCCCCCCCCCCC(=O)N[C@@H](CO)C[C@@H](O)c1cccc(CCCCCC)c1,HeLa,"CERT activity, HPLC-MS/MS lipidomics, measured: sphingomyelin 24","1 µM, 24 h, not cell-number normalised",,sphingomyelin level,44500 pmol/sample and 61100 pmol/sample and 54500 pmol/sample
C=CC(=O)N1CCCC(n2c(=O)c3ncccc3n(Cc3ccc(Oc4ccccc4)cc3)c2=O)C1 (centres unmarked),OCI-Ly3,"cell growth or viability, MTT",72 h,,IC50,10 µM
CC#CC#C/C=C1/O[C@@]2(CCCCO2)[C@@H](O)[C@@H]1OC(C)=O,RAW264.7,Western blot,"concentration not given, with: LPS",,JNK phosphorylation,decreased
Cc1ncsc1-c1ccc(C(C)NC(=O)C2CC(O)CN2C(=O)C(NC(=O)CCCCCCCCCCN2CCCC(Nc3ncc(Cl)c(Nc4ccccc4S(=O)(=O)C(C)C)n3)C2)C(C)(C)C)cc1 (centres unmarked),22Rv1,"RNA-seq, measured: ORAI3 mRNA",concentration not given,reference: DMSO,log2 fold change,-1.26
COc1ccccc1C(=O)NCC(=O)Nc1ccc2[nH]nc(/C=C/c3ccccn3)c2c1,Ba/F3 TEL-VEGFR1,"cell growth, CCK-8",,,GI50,2 µM
C=C1C[C@]2(C(=O)OC)C=C(C(=O)Nc3cccc(C(=O)Nc4ccc(Nc5nccc(-c6cccnc6)n5)c(C)c4)c3)C(=O)[C@H]1C2,AP1 reporter HEK293,"AP1 reporter gene, inhibitor","10 µM, 6 h, compound kept in medium, unit not given, with: PMA",reference: PMA alone,reporter activity,0.121
CCCCCCCCCCCCCCCCCCOc1ccccc1CCOP(=O)([O-])OCC[N+](C)(C)C,NCI-H322M,SRB,10 µM,,growth inhibition,< 0%
CNS(=O)(=O)Nc1nccc(Cc2c(C)c3ccc(Oc4ncccc4F)cc3oc2=O)c1F,SNU-449,cell viability,7 days,,IC50,> 1 µM
O=C(N/N=C/c1ccc(C[n+]2ccccc2)cc1)c1ccc2ccc(C(=O)N/N=C/c3ccc(C[n+]4ccccc4)cc3)nc2n1,hp2 hairpin duplex DNA,FRET melting,"1 µM, with: ds26 10 µM",,ΔTm,0.3 ± 0.4 °C
CN1CCCNC(=O)c2cccc(c2)C(=O)NCCCN(C)CCCNc2cccc3c2C(=O)c2cccc(c2C3=O)NCCC1,SAS,"RNA-Seq, measured: TAPBP mRNA","1 µM, 6 h",reference: untreated cells,log2 fold change,-0.876

# Some of these lines once more:
Structure (SMILES),tested on,test,setting,scale,measurement,value
Fc1cncc(-c2ccc3[nH]c4ncnc(N[C@H]5CC[C@H](N6CCOCC6)CC5)c4c3c2)c1,OCI-Ly3,immunoblot,"10 µM, 24 h",,IRAK4 phosphorylation,inhibited
O=C1CC[C@H](N2Cc3cc(-c4ccn5ncc(Cl)c5n4)ccc3C2=O)C(=O)N1,MOLM-13,"mRNA level, RNA-seq, measured: PHGDH","200 nM, 24 h",reference: DMSO,log2 fold change,-4.53
Cc1ccncc1.[Cl-].[Cl-].[Ru+2].c1cc(-c2ccc3cccnc3n2)nc(-c2ccc3cccnc3n2)c1.c1ccc2cc3nc4c5cccnc5c5ncccc5c4nc3cc2c1,A-375,resazurin,"with: light 633 nm, 100 J/cm2",reference: dark EC50 over light EC50,phototoxicity index,31
Cc1cc(Cl)cc(-c2ccnc3cc(CN4C(=O)C5C(C4=O)C5(C)C)sc23)c1C[C@@H]1CNCCO1 (some centres unmarked),CHP-212 parental (wild-type USP7),annexin V-PI flow cytometry,"0.1 µM, 48 h",,early apoptotic cells (annexin V+/PI-),7.44% and 6.25% and 9.14%
